Measured values gathered from unrelated publications.
Numbers after ± are the reported error.
KDR: Vascular endothelial growth factor receptor 2 (KDR, Homo sapiens, UniProt P35968)
PDGFRB: Platelet-derived growth factor receptor beta (PDGFRB, Homo sapiens, UniProt P09619)
ALDH1A1: Aldehyde dehydrogenase 1A1 (ALDH1A1, Homo sapiens, UniProt P00352)
CTSL: Procathepsin L (CTSL, Homo sapiens, UniProt P07711)
MET: Hepatocyte growth factor receptor (MET, Homo sapiens, UniProt P08581)

The IC50 of `O=C(NCCNc1ccc([N+](=O)[O-])cc1C(F)(F)F)c1ccccc1` is reported as 5700 nM (Potassium channel subfamily K member 6 (KCNK6, Homo sapiens, UniProt Q9Y257); ion current, inhibitor, automated patch clamp; HEK293 GnTI-).
For `Cn1c(=O)n(CCCO)c(=O)c2c1nc(Oc1cccc(OC(F)(F)F)c1)n2Cc1ccc(C2(C(F)(F)F)N=N2)cc1`, the IC50 was 16 nM (TRPC4 (Homo sapiens, UniProt Q9UBN4); calcium signal, inhibitor, fluorescence).
For `COc1cc2nccc(Oc3ccc(NC(=S)N[C@@H](C)CO)c(Cl)c3)c2cc1C(N)=O`, the IC50 was 110 nM (KDR).
With `Cc1nc(NC(=O)N2CCCC2)sc1-c1csc(C(C)(C)C)n1` the IC50 was 6500 nM (PIK3C2B (Homo sapiens, UniProt O00750); enzyme activity, inhibitor).
`COc1cc2nccc(Oc3ccc4c(c3)CN(CC(F)F)C(=O)N4)c2cc1C(N)=O` has an IC50 of 3180 nM (PDGFRB).
`C[C@@H]1CC(=O)N(C2CCOCC2)N=C1c1ccc(NC(=O)N2Cc3ccncc3C2)cc1` gave an IC50 of 1.9 nM (NAMPT (Homo sapiens, UniProt P43490); enzyme activity, inhibitor).
For `NC1CCC(Nc2nccc(-c3cccnc3Oc3cc(Cl)c(NS(=O)(=O)c4ccccc4Cl)cc3F)n2)CC1` (centres unmarked), the IC50 was 3.5 ± 1.4 nM (Serine/threonine-protein kinase/endoribonuclease IRE2, RNase domain (ERN2, Homo sapiens, UniProt Q76MJ5); RNase activity, inhibitor; added: XBP1 mini-substrate).
With `CCOC(=O)N1CCC(Oc2nc3c(c(=O)n(C)c(=O)n3C)n2CCC(C)C)CC1` the IC50 was 138 ± 18 nM (ALDH1A1).
`C[C@H](Cc1ccc(O)c(O)c1)[C@@H](C)Cc1ccc(O)c(O)c1` has an IC50 of 13000 nM (Carbamate kinase (Giardia intestinalis, UniProt A8BB85); enzyme activity, ATP luminescence).
The IC50 of `COc1cnc(COc2ccc(F)c(F)c2)cc1-c1cc2c([nH]1)CCNC2=O` is reported as 40 nM (CSNK1G1 (Homo sapiens, UniProt Q9HCP0); target engagement in cells, BRET).
The IC50 of `CCCCCCCCCCCCCC(=S)NCCCC[C@H](NC(=O)[C@H](CCCNC(=N)N)NC(=O)[C@H](C)N)C(=O)N[C@@H](CO)C(=O)N[C@H](C(=O)O)[C@@H](C)O` is reported as 1700 nM (SIRT6 (Homo sapiens, UniProt Q8N6T7)).
For `N#Cc1nc(N2CCOCC2)nc(N(Cc2ccc(F)cc2)CC2CCCCC2)n1`, the IC50 was 95 nM (CTSL; enzyme activity, inhibitor, fluorescence).
The IC50 of `CCOCCCOc1cc2nccc(Oc3ccc(NC(=S)NC4CC4)c(Cl)c3)c2cc1C(N)=O` is reported as 56.9 nM (PDGFRB).
`CCOC(=O)N1CCC(Oc2nc3c(c(=O)n(C)c(=O)n3C)n2Cc2cccc(C)c2)CC1` has an IC50 of 213 ± 48 nM (ALDH1A1).
`COc1cc2nccc(Oc3ccc(NC(=S)NCC(C)(C)O)c(Cl)c3)c2cc1C(N)=O` has an IC50 of 245 nM (KDR).
`COc1ccc(CCNc2ncnc3sc(C)cc23)cc1OC` gave an IC50 of 3200 nM (NR2F2 (Homo sapiens, UniProt P24468); reporter gene, inhibitor; 293T transfected with NR2F2; 18 h).
With `O=C(O)CCC(=O)NNC(=O)c1cccnc1` the IC50 was 40000 nM (Egl nine homolog 1 (EGLN1, Homo sapiens, UniProt Q9GZT9); inhibitor, AlphaScreen; bimodal curve, rough estimate, added: 2 µM 2-oxoglutarate).
`COc1cc2ncnc(Oc3ccc(Nc4nccc5[nH]cc(-c6ccccc6)c(=O)c45)cc3F)c2cc1OC` gave an IC50 of 358 nM (MET; HGF-induced autophosphorylation, inhibitor, ELISA; MKN-45).
`Cc1ccc2oc(-c3c4c(N)n[nH]c(=O)c4nn3-c3ccc(NC(=O)/C=C/CN(C)C)cc3)c(C)c2c1` gave an IC50 of greater than 1000 nM (MET; enzyme activity, inhibitor, ELISA).
`COc1cc2nccc(Oc3ccc(NC(=S)NCCN(C)C)c(Cl)c3)c2cc1C(N)=O` gave an IC50 of 62.8 nM (PDGFRB).
The IC50 of `CC(/C=C/C(=O)NO)=C\[C@@H](C)C(=O)c1ccc(N(C)C)cc1` is reported as greater than 50000 nM (PTPN11 (Homo sapiens, UniProt Q06124, E76K); enzyme activity, inhibitor, fluorescence).
`[N-]=[N+]=NCCC(=O)NCCCC[C@@H]1NC(=O)[C@@H](Cc2ccccc2)NC(=O)[C@H](CC(=O)O)NC(=O)CNC(=O)[C@H](CCCNC(=N)N)NC1=O` has an IC50 of 0.81 nM (Integrin alpha-V/beta-3 (Homo sapiens, UniProt P05106+P06756, del719-788); ligand displacement, ELISA).
The IC50 of `Cc1ccccc1/C=C/c1nc2ccccc2c(=O)[nH]1` is reported as 159 ± 50 nM (Nucleoside transporter 1 (Plasmodium vivax, UniProt A5K8B0); yeast growth; purine auxotrophic yeast expressing target; 15 to 17 h, added: adenosine 1 mM).
With `CCOc1cncc(-c2ccc(NC(=O)C3(c4ccnc(NS(=O)(=O)C5CC5)n4)CCOCC3)nc2)n1` the IC50 was 21800 nM (CTP synthase 2 (Canis lupus familiaris, UniProt A0A8I3QAX6); enzyme activity, RapidFire mass spectrometry; dog; geometric mean).
With `O=C1C2=C(Nc3ccccc3SC2c2ccc(O)c(O)c2)c2ccccc21` (racemic) the IC50 was greater than 20000 nM (Type II NADH dehydrogenase (Plasmodium falciparum, UniProt Q8I302); enzyme activity, inhibitor, fluorescence NAD+ quantitation; recombinant enzyme).
`Cc1c(C(=O)NNC(=S)Nc2ccc(Cl)cc2)nnn1Cc1nc2ccccc2[nH]1` gave an IC50 of 2520 ± 150 nM (DNA topoisomerase II; inhibitor).
`Cn1cc2c(n1)CN(C(=O)Nc1nc(-c3ccc(F)cc3)ccc1N)C2` gave an IC50 of greater than 30000 nM (HDAC10 (Homo sapiens, UniProt Q969S8); deacetylase activity, inhibitor, recombinant enzyme).
For `CN(C(=O)c1ccn2ncc(-c3ccc(C(N)=O)cc3)c2c1)c1ccc(C#N)cn1`, the IC50 was greater than 10000 nM (PKN2 (Homo sapiens, UniProt Q16513); enzyme activity, inhibitor).
`O=C(O)c1ccc(Cn2sc3ccccc3c2=O)cc1` has an IC50 of 3300 nM (HDAC5 (Homo sapiens, UniProt Q9UQL6); enzyme activity, inhibitor).
For `O=C1CC(c2ccccc2)N1S(=O)(=O)c1cccc(Br)c1` (centres unmarked), the IC50 was less than 20000 nM (Rhomboid protease AarA (Providencia stuartii, UniProt P46116); enzyme activity, inhibitor, fluorescence).
`CC(C)CCN(c1nc(C#N)nc(N2CCOCC2)n1)C(C)c1ccc(F)cc1` (centres unmarked) gave an IC50 of 15 nM (CTSL; enzyme activity, inhibitor, fluorescence).
With `Cc1cccc(/N=N/c2ccc(O)c(C3c4c([nH]c(=S)[nH]c4=O)Nc4[nH]c(=S)[nH]c(=O)c43)c2)c1` the IC50 was 4780 nM (PTGS2 (Ovis aries, UniProt P79208); enzyme activity, inhibitor, ELISA).
For `CCCOc1cc(O)c2c(=O)c(OC)c(C[C@@H](C)O)c3c4c(C[C@@H](C)O)c(OC)c(=O)c5c(O)cc(OCCC)c(c1c23)c54`, the IC50 was 1500 nM (protein kinase C; enzyme activity, inhibitor; whole enzyme).
For `N#CCCNC(c1ccccc1)(c1ccccc1)c1ccccc1Cl`, the IC50 was 5000 nM (KCNN4 (Homo sapiens, UniProt O15554); ion current, inhibitor, patch clamp).
For `C=CC1C(OC2OC(CO)C(O)C(O)C2O)OC=C(C(=O)OC)C1CC(=O)O` (centres unmarked), the IC50 was greater than 100000 nM (MAL12 (Saccharomyces cerevisiae S288c, UniProt P53341); enzyme activity, inhibitor, absorbance).

Excerpt of the above:
With `CCOC(=O)N1CCC(Oc2nc3c(c(=O)n(C)c(=O)n3C)n2CCC(C)C)CC1` the IC50 was 138 ± 18 nM (ALDH1A1).
`C[C@H](Cc1ccc(O)c(O)c1)[C@@H](C)Cc1ccc(O)c(O)c1` has an IC50 of 13000 nM (Carbamate kinase (Giardia intestinalis, UniProt A8BB85); enzyme activity, ATP luminescence).
The IC50 of `COc1cnc(COc2ccc(F)c(F)c2)cc1-c1cc2c([nH]1)CCNC2=O` is reported as 40 nM (CSNK1G1 (Homo sapiens, UniProt Q9HCP0); target engagement in cells, BRET).
The IC50 of `CCCCCCCCCCCCCC(=S)NCCCC[C@H](NC(=O)[C@H](CCCNC(=N)N)NC(=O)[C@H](C)N)C(=O)N[C@@H](CO)C(=O)N[C@H](C(=O)O)[C@@H](C)O` is reported as 1700 nM (SIRT6 (Homo sapiens, UniProt Q8N6T7)).
